Measurements collected from several papers.
Each numbered part is a random draw from the data of one study; scales do not carry over between parts. Several values in a cell are separate wells, animals, samples, runs or records.
UniProt P10721, sequence (whole entry, unmodified, looked up): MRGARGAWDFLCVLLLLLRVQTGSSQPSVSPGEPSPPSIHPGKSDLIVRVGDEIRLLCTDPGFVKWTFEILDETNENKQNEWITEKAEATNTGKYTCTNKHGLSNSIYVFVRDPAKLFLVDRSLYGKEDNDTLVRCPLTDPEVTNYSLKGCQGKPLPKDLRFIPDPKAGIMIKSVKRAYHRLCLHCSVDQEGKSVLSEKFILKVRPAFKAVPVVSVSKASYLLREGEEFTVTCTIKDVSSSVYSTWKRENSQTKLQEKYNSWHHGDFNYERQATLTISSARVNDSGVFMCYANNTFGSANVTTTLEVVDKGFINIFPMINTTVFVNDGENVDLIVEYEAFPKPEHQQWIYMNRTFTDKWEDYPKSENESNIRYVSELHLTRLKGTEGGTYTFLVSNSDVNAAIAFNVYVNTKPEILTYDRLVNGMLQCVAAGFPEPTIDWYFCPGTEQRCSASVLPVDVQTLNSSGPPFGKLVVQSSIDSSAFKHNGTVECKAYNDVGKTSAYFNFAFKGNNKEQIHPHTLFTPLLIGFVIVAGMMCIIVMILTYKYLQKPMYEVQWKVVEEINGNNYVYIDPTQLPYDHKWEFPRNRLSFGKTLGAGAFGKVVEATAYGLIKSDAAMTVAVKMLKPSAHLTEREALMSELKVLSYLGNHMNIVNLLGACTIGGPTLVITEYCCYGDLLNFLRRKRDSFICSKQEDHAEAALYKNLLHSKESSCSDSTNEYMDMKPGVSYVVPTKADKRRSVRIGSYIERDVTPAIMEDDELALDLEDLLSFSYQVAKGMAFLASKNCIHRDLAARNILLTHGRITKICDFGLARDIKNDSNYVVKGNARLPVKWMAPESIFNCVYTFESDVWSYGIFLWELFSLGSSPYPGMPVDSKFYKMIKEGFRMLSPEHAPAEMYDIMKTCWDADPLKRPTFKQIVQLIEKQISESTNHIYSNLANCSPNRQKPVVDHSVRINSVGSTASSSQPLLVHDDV
UniProt Q15746, sequence (whole entry, looked up): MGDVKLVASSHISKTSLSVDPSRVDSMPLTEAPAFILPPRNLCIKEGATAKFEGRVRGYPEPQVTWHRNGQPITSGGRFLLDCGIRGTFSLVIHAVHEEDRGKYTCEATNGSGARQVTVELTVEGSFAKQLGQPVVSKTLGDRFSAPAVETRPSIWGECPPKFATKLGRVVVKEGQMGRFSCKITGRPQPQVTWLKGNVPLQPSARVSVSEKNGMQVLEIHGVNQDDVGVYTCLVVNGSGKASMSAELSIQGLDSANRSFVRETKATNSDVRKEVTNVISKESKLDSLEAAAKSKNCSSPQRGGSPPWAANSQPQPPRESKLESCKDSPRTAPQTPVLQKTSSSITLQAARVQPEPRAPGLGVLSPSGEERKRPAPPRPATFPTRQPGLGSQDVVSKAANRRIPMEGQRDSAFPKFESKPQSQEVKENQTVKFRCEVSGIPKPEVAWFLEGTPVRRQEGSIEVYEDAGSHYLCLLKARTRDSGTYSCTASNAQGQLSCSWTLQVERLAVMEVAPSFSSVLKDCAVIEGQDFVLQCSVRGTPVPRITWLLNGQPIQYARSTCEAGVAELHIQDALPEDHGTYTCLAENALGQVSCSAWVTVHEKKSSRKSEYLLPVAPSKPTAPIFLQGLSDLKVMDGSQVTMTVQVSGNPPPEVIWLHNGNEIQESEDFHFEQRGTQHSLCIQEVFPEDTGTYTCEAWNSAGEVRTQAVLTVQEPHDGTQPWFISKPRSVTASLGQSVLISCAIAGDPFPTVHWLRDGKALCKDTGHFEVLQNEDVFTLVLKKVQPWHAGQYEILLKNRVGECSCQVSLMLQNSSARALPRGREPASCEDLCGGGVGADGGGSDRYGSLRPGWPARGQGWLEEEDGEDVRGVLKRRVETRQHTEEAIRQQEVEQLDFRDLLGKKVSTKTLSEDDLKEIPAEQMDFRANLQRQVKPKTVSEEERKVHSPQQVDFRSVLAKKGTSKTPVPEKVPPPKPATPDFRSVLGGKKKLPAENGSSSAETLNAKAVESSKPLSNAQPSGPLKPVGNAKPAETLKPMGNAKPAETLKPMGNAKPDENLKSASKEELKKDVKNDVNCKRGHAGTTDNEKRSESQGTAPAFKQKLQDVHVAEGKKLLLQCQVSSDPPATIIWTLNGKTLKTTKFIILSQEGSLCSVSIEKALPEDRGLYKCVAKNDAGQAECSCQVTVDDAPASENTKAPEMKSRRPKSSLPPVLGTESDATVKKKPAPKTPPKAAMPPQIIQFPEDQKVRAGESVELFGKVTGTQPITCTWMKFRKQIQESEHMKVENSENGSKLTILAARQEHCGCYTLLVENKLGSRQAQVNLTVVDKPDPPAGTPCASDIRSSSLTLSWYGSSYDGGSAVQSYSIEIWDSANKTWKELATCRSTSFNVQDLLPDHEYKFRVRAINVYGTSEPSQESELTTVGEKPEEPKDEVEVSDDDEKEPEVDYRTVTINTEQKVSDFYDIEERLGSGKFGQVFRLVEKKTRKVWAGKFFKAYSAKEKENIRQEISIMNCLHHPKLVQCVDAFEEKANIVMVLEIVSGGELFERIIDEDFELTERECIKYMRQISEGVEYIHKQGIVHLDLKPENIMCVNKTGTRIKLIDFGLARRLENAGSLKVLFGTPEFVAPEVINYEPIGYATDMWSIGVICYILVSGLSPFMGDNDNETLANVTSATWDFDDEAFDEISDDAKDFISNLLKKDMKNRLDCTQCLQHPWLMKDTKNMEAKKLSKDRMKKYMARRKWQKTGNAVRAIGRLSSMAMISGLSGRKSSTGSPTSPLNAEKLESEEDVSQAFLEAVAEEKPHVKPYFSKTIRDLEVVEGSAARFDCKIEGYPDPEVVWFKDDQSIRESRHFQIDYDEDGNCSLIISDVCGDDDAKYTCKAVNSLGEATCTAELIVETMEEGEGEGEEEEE
UniProt Q05655, sequence (whole entry, looked up): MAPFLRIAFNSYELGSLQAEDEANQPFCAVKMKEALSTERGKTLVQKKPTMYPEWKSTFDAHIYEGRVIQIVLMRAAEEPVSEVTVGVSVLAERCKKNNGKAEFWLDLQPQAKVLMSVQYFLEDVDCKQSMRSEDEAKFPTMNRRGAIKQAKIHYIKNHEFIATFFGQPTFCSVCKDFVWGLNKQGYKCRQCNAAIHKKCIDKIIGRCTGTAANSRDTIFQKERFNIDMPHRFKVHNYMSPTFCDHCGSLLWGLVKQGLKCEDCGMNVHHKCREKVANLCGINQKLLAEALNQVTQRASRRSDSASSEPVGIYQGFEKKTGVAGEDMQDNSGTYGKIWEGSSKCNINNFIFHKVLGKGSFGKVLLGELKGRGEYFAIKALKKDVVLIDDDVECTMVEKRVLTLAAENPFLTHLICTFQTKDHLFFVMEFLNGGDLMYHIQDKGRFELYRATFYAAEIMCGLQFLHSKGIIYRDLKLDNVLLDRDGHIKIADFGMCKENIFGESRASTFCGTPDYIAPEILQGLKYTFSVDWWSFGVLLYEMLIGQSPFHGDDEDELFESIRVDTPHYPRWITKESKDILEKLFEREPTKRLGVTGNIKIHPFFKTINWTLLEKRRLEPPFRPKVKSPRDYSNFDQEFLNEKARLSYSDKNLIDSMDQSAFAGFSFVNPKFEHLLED
UniProt Q13177, sequence (whole entry, looked up): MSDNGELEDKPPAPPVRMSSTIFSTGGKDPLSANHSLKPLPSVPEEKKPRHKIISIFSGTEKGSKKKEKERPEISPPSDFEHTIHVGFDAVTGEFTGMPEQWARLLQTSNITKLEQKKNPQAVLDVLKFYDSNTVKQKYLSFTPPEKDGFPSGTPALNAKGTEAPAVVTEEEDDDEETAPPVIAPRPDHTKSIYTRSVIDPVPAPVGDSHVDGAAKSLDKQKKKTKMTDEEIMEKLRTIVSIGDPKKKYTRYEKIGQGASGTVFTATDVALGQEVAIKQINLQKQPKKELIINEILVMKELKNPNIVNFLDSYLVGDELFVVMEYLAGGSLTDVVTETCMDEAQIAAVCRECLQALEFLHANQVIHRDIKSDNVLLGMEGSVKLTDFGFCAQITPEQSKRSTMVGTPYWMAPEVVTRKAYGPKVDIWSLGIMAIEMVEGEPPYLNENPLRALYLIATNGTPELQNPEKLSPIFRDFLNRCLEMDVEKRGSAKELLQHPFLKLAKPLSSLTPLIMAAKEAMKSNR
UniProt Q13546, sequence (whole entry, looked up): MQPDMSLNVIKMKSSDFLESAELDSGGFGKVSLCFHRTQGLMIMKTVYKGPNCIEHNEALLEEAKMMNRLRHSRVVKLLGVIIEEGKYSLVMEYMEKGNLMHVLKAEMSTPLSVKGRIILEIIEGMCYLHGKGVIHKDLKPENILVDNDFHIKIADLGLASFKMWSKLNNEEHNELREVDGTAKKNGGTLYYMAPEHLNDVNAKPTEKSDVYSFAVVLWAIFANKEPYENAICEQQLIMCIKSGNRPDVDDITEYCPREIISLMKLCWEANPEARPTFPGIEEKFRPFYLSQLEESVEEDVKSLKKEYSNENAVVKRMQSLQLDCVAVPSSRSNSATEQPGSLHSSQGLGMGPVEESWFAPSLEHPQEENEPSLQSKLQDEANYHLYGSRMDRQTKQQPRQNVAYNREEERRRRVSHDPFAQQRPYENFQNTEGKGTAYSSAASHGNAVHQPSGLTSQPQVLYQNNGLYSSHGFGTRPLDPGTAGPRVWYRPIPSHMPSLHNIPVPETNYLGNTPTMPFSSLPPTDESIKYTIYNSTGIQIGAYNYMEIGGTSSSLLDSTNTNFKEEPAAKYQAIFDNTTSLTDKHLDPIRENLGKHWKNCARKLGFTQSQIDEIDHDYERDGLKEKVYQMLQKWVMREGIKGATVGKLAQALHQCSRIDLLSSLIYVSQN
UniProt P48729, sequence (whole entry, looked up): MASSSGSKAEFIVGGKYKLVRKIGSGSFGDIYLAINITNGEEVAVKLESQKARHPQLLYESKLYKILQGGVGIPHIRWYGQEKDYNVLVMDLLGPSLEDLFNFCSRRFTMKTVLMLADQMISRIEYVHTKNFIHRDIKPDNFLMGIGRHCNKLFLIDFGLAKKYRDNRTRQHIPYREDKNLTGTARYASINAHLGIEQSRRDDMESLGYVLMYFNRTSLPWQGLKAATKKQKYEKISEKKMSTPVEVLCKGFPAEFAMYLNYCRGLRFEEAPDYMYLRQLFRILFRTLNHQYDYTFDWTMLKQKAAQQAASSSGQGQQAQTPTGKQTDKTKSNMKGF

Sample 1 — read-out: binding; concentration: 1 µM
SMILES: CN1CCN(C(=O)c2ccc(NC(=O)Nc3ccc(N(C)c4ccnc(Nc5ccc(CS(C)(=O)=O)cc5)n4)cc3)cc2)CC1
target | test | remaining binding
Bone morphogenetic protein receptor type-1A (BMPR1A, Homo sapiens, UniProt P36894) | competition with immobilised ligand | 32%
Myosin-IIIb (MYO3B, Homo sapiens, UniProt Q8WXR4) | competition with immobilised ligand | 23%
Tyrosine-protein kinase Srms (SRMS, Homo sapiens, UniProt Q9H3Y6) | competition with immobilised ligand | 77%
Cyclin-dependent kinase 13 (CDK13, Homo sapiens, UniProt Q14004) |  | 13%
Serine/threonine-protein kinase PLK2 (PLK2, Homo sapiens, UniProt Q9NYY3) |  | 100%
Serine/threonine-protein kinase Nek11 (NEK11, Homo sapiens, UniProt Q8NG66) | competition with immobilised ligand | 100%
Serine/threonine-protein kinase SBK1 (SBK1, Homo sapiens, UniProt Q52WX2) | competition with immobilised ligand | 65%
STE20/SPS1-related proline-alanine-rich protein kinase (STK39, Homo sapiens, UniProt Q9UEW8) |  | 79%

Sample 2 — organism: Sarcocystis neurona; read-out: parasite growth; concentration: 10 µM; time: 96 h; relative to: untreated
Structure (SMILES) | log2 fold change
CSc1nc2cc(Cl)c(Oc3cccc(Cl)c3Cl)cc2[nH]1 | -0.19
CCOC(=O)C1=C(C)NC(C)=C(C(=O)OC)C1c1cccc([N+](=O)[O-])c1 (stereo not shown) | -0.33
COc1cc(-c2ccc(=O)[nH]n2)ccc1OC(F)F | 0.55
CC1=C(CC(=O)O)c2cc(F)ccc2/C1=C\c1ccc([S+](C)[O-])cc1 (stereo not shown) | 0.4
CC[C@@]1(O)C(=O)OCc2c1cc1n(c2=O)Cc2cc3c(CN(C)C)c(O)ccc3nc2-1 | 0.32
C[C@H](CCC(=O)O)[C@H]1CC[C@H]2[C@@H]3[C@@H](O)C[C@@H]4C[C@H](O)CC[C@]4(C)[C@H]3CC[C@]12C | 0.34
CC(C)C(=O)Nc1ccc([N+](=O)[O-])c(C(F)(F)F)c1 | 0.36
CC(=O)SCC(Cc1ccccc1)C(=O)NCC(=O)OCc1ccccc1 (stereo not shown) | 0.39
O=C1Nc2ccc(Cl)cc2[C@@](C#CC2CC2)(C(F)(F)F)O1 | -0.32

Sample 3 — technique: competition with immobilised ligand; concentration: 1 µM
Compound: COc1ccc2cc(OCC3(C(=O)O)CN(C(=O)c4ccc(F)cc4)C3)ccc2c1
target | test | remaining binding
Receptor-interacting serine/threonine-protein kinase 1 (RIPK1, Homo sapiens, UniProt Q13546) | cell-free assay | 100%
Phosphatidylinositol 4-phosphate 3-kinase C2 domain-containing subunit beta (PIK3C2B, Homo sapiens, UniProt O00750) | cell-free assay | 100%
Serine/threonine-protein kinase ICK (CILK1, Homo sapiens, UniProt Q9UPZ9) | binding | 78%
Serine/threonine-protein kinase Nek10 (NEK10, Homo sapiens, UniProt Q6ZWH5) | cell-free assay | 100%
Protein kinase C delta type (PRKCD, Homo sapiens, UniProt Q05655) | cell-free assay | 100%
Calcium/calmodulin-dependent protein kinase type II subunit alpha (CAMK2A, Homo sapiens, UniProt Q9UQM7) | cell-free assay | 100%
Uncharacterized serine/threonine-protein kinase SBK3 (SBK3, Homo sapiens, UniProt P0C264) | cell-free assay | 100%
Epidermal growth factor receptor (EGFR, Homo sapiens, UniProt P00533, del752-759) | cell-free assay | 100%
Mitogen-activated protein kinase kinase kinase kinase 5 (MAP4K5, Homo sapiens, UniProt Q9Y4K4) | cell-free assay | 86%
Dual specificity tyrosine-phosphorylation-regulated kinase 1A (DYRK1A, Homo sapiens, UniProt Q13627) | cell-free assay | 100%
Non-receptor tyrosine-protein kinase TNK1 (TNK1, Homo sapiens, UniProt Q13470) | cell-free assay | 100%
RAC-alpha serine/threonine-protein kinase (AKT1, Homo sapiens, UniProt P31749) | cell-free assay | 100%
Serine/threonine-protein kinase PAK 2 (PAK2, Homo sapiens, UniProt Q13177) | cell-free assay | 83%
Tyrosine-protein kinase ABL1, phosphorylated (ABL1, Homo sapiens, UniProt P00519, M351T) | cell-free assay | 87%
cGMP-dependent protein kinase 1 (PRKG1, Homo sapiens, UniProt Q13976) | cell-free assay | 100%
Fibroblast growth factor receptor 4 (FGFR4, Homo sapiens, UniProt P22455) | cell-free assay | 100%
Dual specificity mitogen-activated protein kinase kinase 7 (MAP2K7, Homo sapiens, UniProt O14733) | cell-free assay | 79%
Myosin light chain kinase, smooth muscle (MYLK, Homo sapiens, UniProt Q15746) | cell-free assay | 84%
Casein kinase I isoform alpha (CSNK1A1, Homo sapiens, UniProt P48729) | cell-free assay | 100%
Homeodomain-interacting protein kinase 2 (HIPK2, Homo sapiens, UniProt Q9H2X6) | cell-free assay | 78%
Serine/threonine-protein kinase BRSK1 (BRSK1, Homo sapiens, UniProt Q8TDC3) | cell-free assay | 85%
RAF proto-oncogene serine/threonine-protein kinase (RAF1, Homo sapiens, UniProt P04049) | cell-free assay | 100%
Serine/threonine-protein kinase DCLK3 (DCLK3, Homo sapiens, UniProt Q9C098) | cell-free assay | 98%
Phosphatidylinositol 4,5-bisphosphate 3-kinase catalytic subunit delta isoform (PIK3CD, Homo sapiens, UniProt O00329) | cell-free assay | 100%
Mast/stem cell growth factor receptor Kit (KIT, Homo sapiens, UniProt P10721, V559D/V654A) | cell-free assay | 100%

Sample 4 — cell line: human islets; technique: qPCR; concentration: concentration not given; notes: unit not given
SMILES: O=C(COc1ccccc1P(=O)(O)O)NCC(F)(F)c1cccc(F)c1
test | setting | how to read | mRNA level
refers to: USP8 | with: glucolipotoxic conditions | relative to: low glucose control | 1.13 and 1.07 and 1.06 and 1.56
refers to: INS | with: 20 mM glucose plus 500 µM palmitate | relative to: low glucose | 6.1 and 2.85
refers to: RELA | with: glucolipotoxic conditions | relative to: low glucose control | 1.19 and 1.05 and 1.71 and 0.664
refers to: BRAF | with: glucolipotoxic conditions | relative to: low glucose control | 0.881 and 0.936 and 2.18 and 1.15

Sample 5 — cell line: A-375; concentration: 100 µM; time: 36 h
SMILES | viability
O=C1CCCC(=O)C1C(=O)c1ccc(C(F)(F)F)cc1[N+](=O)[O-] | 104%
COc1cc2c(cc1O)[C@@H](Cc1ccc(O)c(Oc3ccc(C[C@@H]4c5cc(OC)c(OC)cc5CCN4C)cc3)c1)N(C)CC2 | 4.37%
COc1c(N2CCNC(C)C2)c(F)cc2c(=O)c(C(=O)O)cn(C3CC3)c12 (stereo not shown) | 19.5%
CC(C)n1c(/C=C/[C@H](O)C[C@H](O)CC(=O)O)c(-c2ccc(F)cc2)c2ccccc21 (racemic) | 53.6%
CCN(CCCc1ccccc1)CCCc1ccccc1 | -2.72%
CC[C@H]1OC(=O)[C@H](C)[C@@H](O[C@H]2C[C@@](C)(OC)[C@@H](O)[C@H](C)O2)[C@H](C)[C@@H](O[C@@H]2O[C@H](C)C[C@H](N(C)C)[C@H]2O)[C@](C)(O)C[C@@H](C)C(=O)[C@H](C)[C@@H](O)[C@]1(C)O | 72.1%
Nc1cccc2c1C(=O)N(C1CCC(=O)NC1=O)C2=O (stereo not shown) | 101%
CO[C@H]1C[C@@H]2CC[C@@H](C)[C@@](O)(O2)C(=O)C(=O)N2CCCC[C@H]2C(=O)O[C@H]([C@H](C)C[C@@H]2CC[C@@H](OC(=O)C(C)(CO)CO)[C@H](OC)C2)CC(=O)[C@H](C)/C=C(\C)[C@@H](O)[C@@H](OC)C(=O)[C@H](C)C[C@H](C)/C=C/C=C/C=C/1C | 29.9%
COc1cc([C@@H]2c3cc4c(cc3[C@@H](O[C@@H]3O[C@@H]5CO[C@@H](c6cccs6)O[C@H]5[C@H](O)[C@H]3O)[C@H]3COC(=O)[C@H]23)OCO4)cc(OC)c1O | 23.5%
Nc1nc(=O)n([C@@H]2CS[C@H](CO)O2)cc1F | 87.2%
CCCCN1CCCCC1C(=O)Nc1c(C)cccc1C (stereo not shown) | 92.1%

Mixed results
SMILES | test system | measurement | value
CCC[C@H]1NC(=O)CSC[C@@H](C(=O)OCC)N(C)C(=O)[C@H](CC(C)C)NC(=O)[C@H](C)N(C)C(=O)[C@@H](CC(C)C)NC(=O)[C@H](C)N(C)C(=O)[C@@H]2CCCN2C(=O)[C@H](CC(C)C)NC(=O)CN(CCC)C1=O | hydrocarbon/water | logD | 0.832

A few entries again (sample 3):
target | test | remaining binding
Phosphatidylinositol 4-phosphate 3-kinase C2 domain-containing subunit beta (PIK3C2B, Homo sapiens, UniProt O00750) | cell-free assay | 100%
Serine/threonine-protein kinase ICK (CILK1, Homo sapiens, UniProt Q9UPZ9) | binding | 78%
Serine/threonine-protein kinase Nek10 (NEK10, Homo sapiens, UniProt Q6ZWH5) | cell-free assay | 100%
Protein kinase C delta type (PRKCD, Homo sapiens, UniProt Q05655) | cell-free assay | 100%
Calcium/calmodulin-dependent protein kinase type II subunit alpha (CAMK2A, Homo sapiens, UniProt Q9UQM7) | cell-free assay | 100%
Uncharacterized serine/threonine-protein kinase SBK3 (SBK3, Homo sapiens, UniProt P0C264) | cell-free assay | 100%
Epidermal growth factor receptor (EGFR, Homo sapiens, UniProt P00533, del752-759) | cell-free assay | 100%
Mitogen-activated protein kinase kinase kinase kinase 5 (MAP4K5, Homo sapiens, UniProt Q9Y4K4) | cell-free assay | 86%
Dual specificity tyrosine-phosphorylation-regulated kinase 1A (DYRK1A, Homo sapiens, UniProt Q13627) | cell-free assay | 100%
